Measurements from different studies.
Every numbered part comes from another study and shows a few of its results, in no order.
Sequence of UniProt Q8L7G0 (whole entry, looked up): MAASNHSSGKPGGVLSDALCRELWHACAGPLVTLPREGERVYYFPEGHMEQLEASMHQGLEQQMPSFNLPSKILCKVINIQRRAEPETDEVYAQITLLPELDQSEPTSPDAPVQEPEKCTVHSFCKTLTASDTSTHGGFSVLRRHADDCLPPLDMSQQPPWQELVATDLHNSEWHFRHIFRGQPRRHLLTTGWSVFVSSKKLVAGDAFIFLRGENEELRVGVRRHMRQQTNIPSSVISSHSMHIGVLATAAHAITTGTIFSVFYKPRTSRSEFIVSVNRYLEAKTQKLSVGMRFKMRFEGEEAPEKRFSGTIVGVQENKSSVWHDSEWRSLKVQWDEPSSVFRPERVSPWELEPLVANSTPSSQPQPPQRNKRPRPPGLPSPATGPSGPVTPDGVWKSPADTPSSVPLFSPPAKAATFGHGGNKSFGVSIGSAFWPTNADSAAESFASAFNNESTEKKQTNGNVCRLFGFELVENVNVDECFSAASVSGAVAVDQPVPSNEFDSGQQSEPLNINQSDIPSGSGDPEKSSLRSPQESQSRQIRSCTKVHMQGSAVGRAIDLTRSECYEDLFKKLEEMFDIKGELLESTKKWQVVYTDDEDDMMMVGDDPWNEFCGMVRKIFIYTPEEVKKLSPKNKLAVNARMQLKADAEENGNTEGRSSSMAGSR
Sequence of UniProt O23661 (whole entry, looked up): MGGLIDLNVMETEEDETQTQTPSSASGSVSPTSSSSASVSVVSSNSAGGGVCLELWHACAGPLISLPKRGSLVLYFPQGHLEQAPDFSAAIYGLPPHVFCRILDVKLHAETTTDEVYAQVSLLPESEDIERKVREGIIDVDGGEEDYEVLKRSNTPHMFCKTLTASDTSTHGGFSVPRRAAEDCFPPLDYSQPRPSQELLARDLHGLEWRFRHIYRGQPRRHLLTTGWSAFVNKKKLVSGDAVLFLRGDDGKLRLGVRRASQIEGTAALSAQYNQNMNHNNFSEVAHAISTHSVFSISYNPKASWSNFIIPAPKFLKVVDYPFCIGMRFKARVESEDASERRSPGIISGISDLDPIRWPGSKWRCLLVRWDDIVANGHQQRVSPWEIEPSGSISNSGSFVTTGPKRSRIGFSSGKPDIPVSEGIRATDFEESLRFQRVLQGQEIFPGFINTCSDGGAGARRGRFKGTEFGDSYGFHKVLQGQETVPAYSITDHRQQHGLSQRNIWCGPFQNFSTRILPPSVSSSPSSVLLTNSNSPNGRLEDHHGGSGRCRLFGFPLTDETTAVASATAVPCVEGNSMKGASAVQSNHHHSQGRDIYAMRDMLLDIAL
Sequence of UniProt Q84WU6 (whole entry, looked up): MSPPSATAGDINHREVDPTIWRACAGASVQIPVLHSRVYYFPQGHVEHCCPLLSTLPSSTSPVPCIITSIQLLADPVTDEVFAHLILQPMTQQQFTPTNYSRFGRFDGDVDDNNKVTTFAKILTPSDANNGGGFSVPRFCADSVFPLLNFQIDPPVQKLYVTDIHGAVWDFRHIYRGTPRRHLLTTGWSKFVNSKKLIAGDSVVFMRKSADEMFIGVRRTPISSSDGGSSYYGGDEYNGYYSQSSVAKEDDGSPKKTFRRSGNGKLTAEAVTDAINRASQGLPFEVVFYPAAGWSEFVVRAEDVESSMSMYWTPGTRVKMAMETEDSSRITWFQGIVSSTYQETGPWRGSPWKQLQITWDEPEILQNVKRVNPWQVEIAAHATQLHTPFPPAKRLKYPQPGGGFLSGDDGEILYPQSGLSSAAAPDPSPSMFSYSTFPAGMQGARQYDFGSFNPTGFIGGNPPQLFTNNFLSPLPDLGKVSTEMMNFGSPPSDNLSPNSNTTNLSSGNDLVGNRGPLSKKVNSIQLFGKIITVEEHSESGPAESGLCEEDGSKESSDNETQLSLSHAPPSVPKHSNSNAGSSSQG
Sequence of UniProt Q9C5X0 (whole entry, looked up): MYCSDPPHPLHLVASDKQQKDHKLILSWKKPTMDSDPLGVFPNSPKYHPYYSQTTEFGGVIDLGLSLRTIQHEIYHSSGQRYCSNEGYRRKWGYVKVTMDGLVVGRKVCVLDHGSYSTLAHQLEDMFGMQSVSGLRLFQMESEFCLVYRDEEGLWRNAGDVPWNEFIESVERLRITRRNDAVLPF
Sequence of UniProt P93022 (whole entry, looked up): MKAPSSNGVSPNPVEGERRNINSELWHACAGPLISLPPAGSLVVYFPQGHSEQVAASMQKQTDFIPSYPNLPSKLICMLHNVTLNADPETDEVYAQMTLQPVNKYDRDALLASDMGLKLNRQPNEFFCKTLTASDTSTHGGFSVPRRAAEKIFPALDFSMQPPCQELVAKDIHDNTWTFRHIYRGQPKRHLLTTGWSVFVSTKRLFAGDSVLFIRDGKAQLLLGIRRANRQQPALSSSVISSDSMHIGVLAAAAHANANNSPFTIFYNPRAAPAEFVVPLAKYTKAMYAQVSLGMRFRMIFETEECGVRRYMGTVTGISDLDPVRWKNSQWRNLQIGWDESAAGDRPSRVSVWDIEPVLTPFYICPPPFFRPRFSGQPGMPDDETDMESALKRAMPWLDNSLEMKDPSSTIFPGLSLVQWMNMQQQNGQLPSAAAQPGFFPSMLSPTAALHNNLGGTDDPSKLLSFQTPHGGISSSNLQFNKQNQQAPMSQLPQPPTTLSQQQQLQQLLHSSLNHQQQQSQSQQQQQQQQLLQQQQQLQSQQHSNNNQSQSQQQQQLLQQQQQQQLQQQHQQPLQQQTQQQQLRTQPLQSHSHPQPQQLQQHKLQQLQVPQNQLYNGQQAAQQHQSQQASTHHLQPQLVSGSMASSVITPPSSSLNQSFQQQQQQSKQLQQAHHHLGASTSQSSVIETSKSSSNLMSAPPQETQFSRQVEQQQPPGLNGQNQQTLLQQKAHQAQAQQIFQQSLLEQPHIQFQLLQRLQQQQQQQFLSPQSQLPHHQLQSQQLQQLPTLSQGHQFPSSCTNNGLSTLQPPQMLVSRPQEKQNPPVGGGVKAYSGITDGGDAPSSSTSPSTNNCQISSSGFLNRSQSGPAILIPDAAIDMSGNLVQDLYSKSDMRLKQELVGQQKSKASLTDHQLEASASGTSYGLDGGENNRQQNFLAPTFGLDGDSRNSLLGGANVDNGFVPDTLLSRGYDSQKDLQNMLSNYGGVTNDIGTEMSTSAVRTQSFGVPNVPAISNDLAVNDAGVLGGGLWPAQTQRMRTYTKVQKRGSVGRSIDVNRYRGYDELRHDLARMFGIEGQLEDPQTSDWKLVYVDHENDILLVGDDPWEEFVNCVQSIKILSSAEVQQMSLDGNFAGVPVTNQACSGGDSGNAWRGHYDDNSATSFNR
Sequence of UniProt Q38831 (whole entry, looked up): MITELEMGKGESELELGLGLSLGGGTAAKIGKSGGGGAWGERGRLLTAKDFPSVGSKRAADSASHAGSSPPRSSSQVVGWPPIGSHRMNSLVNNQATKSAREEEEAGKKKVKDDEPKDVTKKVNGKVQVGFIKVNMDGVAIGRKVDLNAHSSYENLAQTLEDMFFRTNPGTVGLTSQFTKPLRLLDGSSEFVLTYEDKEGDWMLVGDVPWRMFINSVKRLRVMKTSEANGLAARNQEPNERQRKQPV
Sequence of UniProt P93024 (whole entry, looked up): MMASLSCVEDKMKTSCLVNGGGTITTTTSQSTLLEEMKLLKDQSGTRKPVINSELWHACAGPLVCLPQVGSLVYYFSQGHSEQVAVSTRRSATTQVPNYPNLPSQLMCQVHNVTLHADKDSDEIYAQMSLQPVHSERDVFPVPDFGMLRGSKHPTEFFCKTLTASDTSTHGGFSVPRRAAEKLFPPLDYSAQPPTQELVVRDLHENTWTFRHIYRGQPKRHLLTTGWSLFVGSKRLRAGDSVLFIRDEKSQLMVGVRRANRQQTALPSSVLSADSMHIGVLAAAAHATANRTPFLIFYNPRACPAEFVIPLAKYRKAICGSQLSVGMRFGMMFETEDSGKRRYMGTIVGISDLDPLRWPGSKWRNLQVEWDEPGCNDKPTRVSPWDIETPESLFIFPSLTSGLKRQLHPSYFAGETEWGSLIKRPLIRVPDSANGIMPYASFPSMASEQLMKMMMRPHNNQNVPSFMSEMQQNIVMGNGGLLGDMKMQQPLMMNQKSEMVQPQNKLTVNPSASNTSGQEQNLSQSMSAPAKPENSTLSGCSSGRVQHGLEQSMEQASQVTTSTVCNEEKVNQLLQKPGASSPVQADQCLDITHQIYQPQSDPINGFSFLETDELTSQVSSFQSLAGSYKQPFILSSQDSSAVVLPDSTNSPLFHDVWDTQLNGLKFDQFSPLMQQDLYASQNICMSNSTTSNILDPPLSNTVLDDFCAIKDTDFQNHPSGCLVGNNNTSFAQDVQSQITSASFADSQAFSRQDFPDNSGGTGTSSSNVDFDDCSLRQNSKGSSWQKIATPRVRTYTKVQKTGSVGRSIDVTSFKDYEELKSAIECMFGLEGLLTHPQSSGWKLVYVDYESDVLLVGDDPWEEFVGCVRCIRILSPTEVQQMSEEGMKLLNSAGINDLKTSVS

Block 1 — technique: protein binding microarray; form: double-stranded DNA, one strand shown; medium: in vitro; concentration: not given; relative to: not given; direction: higher = stronger binding
Target: Histone acetyltransferase KAT6A, both winged helices, GST fusion (KAT6A, Homo sapiens, UniProt Q92794, residues 1-181)
Setting: 8-mer, flanks averaged, mean of 2 arrays, mostly near background
Residues (chain): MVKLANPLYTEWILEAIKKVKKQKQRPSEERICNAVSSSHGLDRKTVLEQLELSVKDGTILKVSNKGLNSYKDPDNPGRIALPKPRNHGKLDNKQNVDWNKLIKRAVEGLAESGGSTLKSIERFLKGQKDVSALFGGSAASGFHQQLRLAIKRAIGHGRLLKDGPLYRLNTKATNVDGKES
The E-score of `AAGAGAAC` is reported as -0.061.
With `GGGCCAGA` the E-score was -0.127.
The E-score of `CTTCTCAC` is reported as -0.104.
With `CAGCAGAC` the E-score was -0.0781.
`ACGCATAT` has an E-score of 0.0165.
`CAACCACG` gave an E-score of 0.00038.
`GCTCATCC` has an E-score of 0.00334.
With `ACGCTTAA` the E-score was 0.0573.
For `AAGCGTAC`, the E-score was 0.0864.
`AGATTTGC` has an E-score of 0.00078.
The E-score of `CAGACGAG` is reported as -0.141.

Block 2 — Sequence: B1 (IAA5); technique: two-hybrid; direction: higher = firmer interaction
B1: IAA5 (Arabidopsis thaliana, UniProt P33078); chain MANESNNLGLEITELRLGLPGDIVVSGESISGKKRASPEVEIDLKCEPAKKSQVVGWPPVCSYRRKNSLERTKSSYVKVSVDGAAFLRKIDLEMYKCYQDLASALQILFGCYINFDDTLKESECVPIYEDKDGDWMLAGDVPWEMFLGSCKRLRIMKRSCNRG
ARF17 (Arabidopsis thaliana, UniProt Q84WU6); weak activation fusion; relative to: out of 4 tests — positive tests: 1.
ETT (Arabidopsis thaliana, UniProt O23661); relative to: out of 4 tests — positive tests: 0.
The positive tests was 4 (IAA34 (Arabidopsis thaliana, UniProt Q9C5X0); relative to: out of 4 tests).
The positive tests was 1 (ARF7 1030-1164 (Arabidopsis thaliana, UniProt P93022); relative to: out of 3 tests).
IAA13 (Arabidopsis thaliana, UniProt Q38831); relative to: out of 4 tests — positive tests: 2.
ARF5 788-902 (Arabidopsis thaliana, UniProt P93024); relative to: out of 3 tests — positive tests: 2.
The positive tests was 0 (ARF1 538-665 (Arabidopsis thaliana, UniProt Q8L7G0); relative to: out of 4 tests).

Block 3 — technique: RNA Bind-n-Seq; form: RNA; medium: in vitro; concentration: 365 nM; relative to: no-protein control; direction: higher = stronger binding
Target: RNA binding protein fox-1 homolog 2, RRM domain, GST-SBP tag (RBFOX2, Homo sapiens, UniProt O43251-10, residues 100-194)
Setting: natural RNA segment, single round, ends assumed
Shared flanks, not repeated: GGGAGUUCUACAGUCCGACGAUC … UGGAAUUCUCGGGUGCCAA
Residues (chain): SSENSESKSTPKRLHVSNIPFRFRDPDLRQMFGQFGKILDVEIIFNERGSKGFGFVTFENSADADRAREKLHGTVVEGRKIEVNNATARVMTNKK
For `AACUGUUCCACUUGAACCCGGGAGCUUUAAAGCUUUAUUUAUUUAUAGCUUCUUAUUAAAAAUUUAAAAAAAGCGUUGAGGAGGAAUCCUUUGGUUAUUCAUACGGAAUU`, “RBNS enrichment (R)” read 0.515.
`UCUUACCGGUCAUAGGCCCCGGUGAGGAGCAGGGAAGCGCCAUUGUGAAAGAUUAAAGAAAGCACUUCCACUUGAGCUCCUUAUGGAGUGAGCUUCCCUGUGCCCACUCA` — result for “RBNS enrichment (R)”: 0.369.
`CCCGUCCCCCAGCUGCCUGUCCUUAUAACCAGCUAUUCUCUGUCCUCUUGGCUCCUGGUCCUCUCUGUGCUCGAUUCUCUAUCCUGUGCCAGUUUCCUCUCCGUCUCACG`: “RBNS enrichment (R)” 0.726.
Under “RBNS enrichment (R)”, `GAAGUGAUCAGUAUUAAGUGGGUGAUGGCUCUUUCAUCUUCCUUAUCCCUAAAGAUACUUCCAACAUAUUGUUAGAGUAAGUAUUAAAAGAAAAAGUAGGUUUGCUGAAA` is recorded as 0.386.
For `UCUCUUUAGGUAAGAUUUGGUUUGUUUGUGUCUUGUUUGUUUCCCUCUCCAAAUUCUUCCUUCUUUGUGCACCCUGCCUUUCUUCCCUUCCAUCCUUUCUUUUUUGUAUA`, “RBNS enrichment (R)” read 24.9.
`AGAAUACAAAGUCCCGGGCUGUUAGAGGAGUCCUUUCCUCUCUGCCUGCCCUUUCCUGUCCCUCCCUCGAAUUCUCUCUCCCCGUAAGUGAUGCUGGAAAAGUCAUAGGA` — result for “RBNS enrichment (R)”: 0.672.
Under “RBNS enrichment (R)”, `ACUCUAUUCAACCAGAGUUUUAUCACGCACCUCAUCGGGUCUCUCCUGGUUGCUGCCCCGAGGUGAUCGUCAUGGAAAAUGCUGAGAAGGUGGGAAUGGGAUGGGGUGGA` is recorded as 1.06.
For `UAUAGCAAUUCUGACAAUAGGUUUGUUUGUUUGUUUGUUUGUUUUUACAAACUCAAGAAAAACAGACUCACUUGAAAAAAUGGAUGCCAGUCACCUGGUUCCCACUACUG`, “RBNS enrichment (R)” read 0.349.
`UGAGAAACCAUGAGGUUUCUUUGUAUUAAAAUUUGAAAUAAAUUUCUACUUAUCUUUUGGUAUUGGAUCUUGCCAGUCGUUUGCUGUUGCAUUCUUUUAAGGAAUCGGAC`: “RBNS enrichment (R)” 0.771.
For `UACUUACUUAUUACCUAGAUUUUAAAUAGACAAUCCAAAGUCUCCCCUUCGUGUUGCCAUCAUCUUGUUGAAUCAGCCAUUUUAUCGAGGCACGUGAUCAGUGUUGCAAC`, “RBNS enrichment (R)” read 0.489.
`CACAGAGGCUCCUAAGAUACAUGAGACCUUUGCAGUGUUUUCUCUCCACCUUCUGAGACAGAGGGAAGCAAGGAAACAGGGGAGAAAAAAAAGAGUGAACAAAUUCAGUG`: “RBNS enrichment (R)” 0.742.

Other studies, line by line
`PhoQ, residues 284 288 289 292 302 303 AGCYAI` has a fold induction of 12 (PhoP, residues 12 14 15 18 19 SEGLL (Escherichia coli, UniProt P23836); Sort-seq, measured: YFP reporter; E. coli; PhoQ-PhoP variant library, added: 10 µM Mg2+; relative to: high Mg2+ state, higher = stronger signaling).

Excerpt of the above (block 2):
The positive tests was 1 (ARF7 1030-1164 (Arabidopsis thaliana, UniProt P93022); relative to: out of 3 tests).
IAA13 (Arabidopsis thaliana, UniProt Q38831); relative to: out of 4 tests — positive tests: 2.
ARF5 788-902 (Arabidopsis thaliana, UniProt P93024); relative to: out of 3 tests — positive tests: 2.
